Published values pooled from the literature.
A part holds a random share of what one study measured. Changes are numbered by the printed parent chain.

Series 1
Target: CCNF, cyclin fold, Cln2 fusion (human)
Method: yeast growth competition, sequencing
Sample: yeast
Notes: strong parent motif
Baseline: not given
Direction: higher = stronger binding
Starting sequence: WEE1 docking peptide (human); HKTFRKLRLFDTP; partner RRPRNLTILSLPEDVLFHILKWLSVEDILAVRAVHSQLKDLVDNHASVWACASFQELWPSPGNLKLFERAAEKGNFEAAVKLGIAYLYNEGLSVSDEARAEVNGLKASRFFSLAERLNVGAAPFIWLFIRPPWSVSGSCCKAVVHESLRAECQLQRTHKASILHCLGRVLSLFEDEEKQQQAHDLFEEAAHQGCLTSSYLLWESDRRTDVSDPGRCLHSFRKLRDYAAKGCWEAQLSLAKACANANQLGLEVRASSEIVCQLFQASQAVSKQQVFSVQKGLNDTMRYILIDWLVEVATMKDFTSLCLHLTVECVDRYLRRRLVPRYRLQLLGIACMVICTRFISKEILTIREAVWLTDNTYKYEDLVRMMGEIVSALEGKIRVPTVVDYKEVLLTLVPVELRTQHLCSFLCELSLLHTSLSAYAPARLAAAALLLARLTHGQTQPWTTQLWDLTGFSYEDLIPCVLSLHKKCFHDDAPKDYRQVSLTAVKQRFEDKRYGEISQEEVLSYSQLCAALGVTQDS
Variant | normalised enrichment score
P13Q | 1.92
F4K | 3.36
L9R | 0.611
R8I | 5.48
P13Y | 1.93
T12C | 1.72
T3N | 1.5
T12D | 3.1
R5E | 2.54
L7Y | 2.53
K6V | 2.29
R5G | 0.906

Series 2
Target: Ras GTPase-activating protein-binding protein 1, full length (G3BP1, Homo sapiens, UniProt Q13283)
UniProt Q13283, sequence (whole entry, looked up): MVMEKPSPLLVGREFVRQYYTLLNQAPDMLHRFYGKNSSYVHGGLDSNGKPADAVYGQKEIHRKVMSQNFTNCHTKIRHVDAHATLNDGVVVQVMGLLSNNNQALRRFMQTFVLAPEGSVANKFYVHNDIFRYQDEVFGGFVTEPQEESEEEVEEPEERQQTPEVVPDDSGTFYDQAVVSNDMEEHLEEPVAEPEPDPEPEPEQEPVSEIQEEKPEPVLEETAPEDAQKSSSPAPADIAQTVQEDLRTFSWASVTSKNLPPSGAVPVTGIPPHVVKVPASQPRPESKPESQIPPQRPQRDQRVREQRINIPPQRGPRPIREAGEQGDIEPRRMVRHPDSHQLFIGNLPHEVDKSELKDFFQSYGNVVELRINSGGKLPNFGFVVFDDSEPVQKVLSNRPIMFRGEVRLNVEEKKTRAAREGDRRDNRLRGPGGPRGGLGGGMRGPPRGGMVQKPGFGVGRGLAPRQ
Method: RNA Bind-n-Seq
Form: RNA
Sample: in vitro
Concentration: 200 nM
Notes: whole 134-nt RNA, ends assumed
Together with: 150 mM LiCl
Baseline: input library
Direction: higher = stronger binding
Library: 7-deaza-guanosine replaces G
Shared flanks, not repeated: GGGAGUUCUACAGUCCGACGAUC … UGGAAUUCUCGGGUGUCAAGG
Strand | log2 enrichment
AGUCCUGUGCUACACAUCGUAUGUACCGAAUCGGGGAAAGGGGAAAGGGGAAAGGGGAAAGUAUUAUGUUACGCCGUUCGGAUCUGCACU | 0.293
GCAGGAAGUAAAACCAAAUGGAAAUGCUUCGGAUAGUGGCAGGGGUGGGGGUUGCUAAGGAAAGGGUGGGAUGGGAGUGGGUAAAGAGUU | -0.211
AGUCCUGUGCUACACAUCGUAUGUACCGAAUCGGGAAAAAAAGGGAAAGGGAAAGGGAAAGUAUUAUGUUACGCCGUUCGGAUCUGCACU | -0.742
CACAGACAACACGCACCCACACAGACACAGAGGGAAGGGGUUGGGAUGGGGACAGGGUGCACAGCAGGGCGGGGUAGGACCCCAGCCUCU | -0.539
UAACUUUAGAGGAGGAUCUCAUGGAUAUGGCAGUGGACGUGGAUUUGGGGAUGGCUAUAAUGGGUAUGGAGGAGGACCUGGAGGUGGCAA | -0.385
UAACUUGAGAGGAGGAUCUGAUGGAUAUGGCAGUGGACGUGGAUUUGGGGAUGGCUAUAAUGGGUAUGGAGGAGGACCUGGAGGUGGCAA | -0.191
UAUUCCAAUGUCUGUGGGAAUAAUUGACACAAGGACGAAUCCAAGCCAGUUAAAUGCGGUUGAAUUUCUGUGGGACCCAGCAAAACGCAC | 0.0522
UCCUCAAGUCCUGUGCUACACAUCGUAUGUACCGAAUCGGGAGGGAGGAGGAAAGUAUUAUGUUACGCCGUUCGGAUCUGCACUUCCAGC | -0.672

Series 3
Target: BATF3, bZIP domain (human)
Method: DHFR protein complementation
Sample: yeast
Notes: single substitutions, most at no-binding floor
Baseline: wild-type JUN-FOS pair
Direction: higher = stronger binding
Starting sequence: JUN, bZIP domain (human); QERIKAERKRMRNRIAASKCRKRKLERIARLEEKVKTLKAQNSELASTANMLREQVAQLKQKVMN; partner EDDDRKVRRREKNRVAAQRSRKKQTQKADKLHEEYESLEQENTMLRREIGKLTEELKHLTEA
Variant | binding fitness [natural log]
L31A | 0.203
L52M | 0.074
K39T | 0.208
K39Y | 0.0748
S47E | 0.277
I28G | 0.373

Other studies, line by line
Molecule | target | test | system | setting | how to read | endpoint | result
PhoQ, residues 284 288 289 292 302 303 STVVAA | PhoP, residues 12 14 15 18 19 GHCSL (Escherichia coli, UniProt P23836) | Sort-seq, measured: YFP reporter | E. coli | PhoQ-PhoP variant library, together with: 10 µM Mg2+ | baseline: high Mg2+ state, higher = stronger signaling | fold induction | 24.4

Excerpt of the above (series 1):
Variant | normalised enrichment score
L7Y | 2.53
R5E | 2.54
